Results from different studies.
Protocols differ between the studies behind these lines. Numbers after ± are the reported error.
B1: enzyme Y105A (Streptomyces parvus, UniProt A0A7K3RVR3); chain MYVPEQYRPRDASWTLELIRSNPLALLVTNGPQHPWATHVPVLFAEEPDGPEGPDGLDATGDDLVGRRLLGHLNLMNPHWEALAGAGHALLVFQGPGSYVSPTVAETAPAAPTWDFTSVHVHGALRLIDDPDDLRKIVQATVRAYEREVGTDWDMSESLEYFERLLPGVRGFEIKIESVDSMFKLSQEQLPETVTKVIDSFRRSDGGRRQELATMIERAASD
B2: enzyme Y7F (Streptomyces parvus, UniProt A0A7K3RVR3); chain MYVPEQFRPRDASWTLELIRSNPLALLVTNGPQHPWATHVPVLFAEEPDGPEGPDGLDATGDDLVGRRLLGHLNLMNPHWEALAGAGHALLVFQGPGSYVSPTVYETAPAAPTWDFTSVHVHGALRLIDDPDDLRKIVQATVRAYEREVGTDWDMSESLEYFERLLPGVRGFEIKIESVDSMFKLSQEQLPETVTKVIDSFRRSDGGRRQELATMIERAASD

CC(C)C[C@@H]1NC(=O)[C@H](CC(=O)O)NC(=O)CNC(=O)[C@H](CCCNC(=N)N)NC(=O)[C@H](Cc2ccccc2)NC(=O)[C@H](CCCCNC(=O)CCc2cn(CCCNC(=O)CCC(C(=O)O)N3CCN(CC(=O)O)CCN(CC(=O)O)CCN(CC(=O)O)CC3)nn2)N(C)C(=O)[C@H]2CCCN2C(=O)[C@H](Cc2ccccc2)NC(=O)[C@H](C)NC1=O (stereo partly drawn) — tissue-to-tissue ratio (female CB17 SCID mice, tumour and eye; intravenous, dose not given, 90 min, 177Lu-labelled; baseline: tumour over eye): 5 ± 1.4
C[C@@H](O)[C@@H]1NC(=O)[C@@H](NC(=O)CCOCCOCCOCCOCCNC(=O)c2ccc(NN)nc2)CSSC[C@@H](C(=O)O)NC(=O)[C@H](Cc2c[nH]cn2)NC(=O)[C@H](CO)NC(=O)[C@H](Cc2ccccc2)NC(=O)[C@@H]2CCCN2C(=O)[C@H](CO)NC(=O)[C@@H]2CCCN2C1=O [technetium-99m labelled] — tissue uptake (mouse HCT-116 xenograft, tumor; intravenous, 37 MBq, postmortem after imaging): 0.87 ± 0.21 %ID/g
O=C(O)CC[C@H](NC(=O)N[C@@H](CCCCNC(=O)[C@H](Cc1ccc2ccccc2c1)NC(=O)[C@H]1CC[C@H](CNC(=O)CN2CCN(CC(=O)O)CCN(C(CCC(=O)NCCC[P+](c3ccccc3)(c3ccccc3)c3ccccc3)C(=O)O)CCN(CC(=O)O)CC2)CC1)C(=O)O)C(=O)O (stereo partly drawn) [terbium-161 labelled] — logD (pH 7.4): -2.35 ± 0.02
B1 (enzyme Y105A) — Km (N[C@@H](CCCNO)C(=O)O; steady-state kinetics; pH 8, 25 °C, together with: heme): 3220 µM
N=C(N)NCCC[C@@H]1NC(=O)[C@H](CCCCNC(=O)CCC(NC(=S)Nc2ccc(CC3CN(CC(=O)O)CCN(CC(=O)O)CCN(CC(=O)O)CCN3CC(=O)O)cc2)C(=O)NCCCC[C@@H]2NC(=O)[C@@H](Cc3ccc(O)cc3)NC(=O)[C@H](CC(=O)O)NC(=O)CNC(=O)[C@H](CCCNC(=N)N)NC2=O)NC(=O)[C@@H](Cc2ccc(O)cc2)NC(=O)[C@H](CC(=O)O)NC(=O)CNC1=O (stereo partly drawn) [scandium-44 labelled] — tissue uptake (ex vivo γ-counting; female athymic nude mice, U-87 MG xenograft, blood; intravenous, 4 h): 0.02 %ID/g
CN[C@H](CC(C)C)C(=O)N[C@H]1C(=O)N[C@@H](CC(N)=O)C(=O)N[C@H]2C(=O)N[C@H]3C(=O)N[C@H](C(=O)N[C@H](C(=O)NCC(N)=O)c4cc(O)cc(O)c4-c4cc3ccc4O)[C@H](O)c3ccc(c(Cl)c3)Oc3cc2cc(c3O[C@@H]2O[C@H](CO)[C@@H](O)[C@H](O)[C@H]2O[C@H]2C[C@](C)(NCc3ccc(OCc4cn(CC(=O)N[C@H](C(=O)N[C@@H](CCN)C(=O)N[C@H]5CCNC(=O)[C@H]([C@@H](C)O)NC(=O)[C@H](CCN)NC(=O)[C@H](CCN)NC(=O)[C@H](CC(C)C)NC(=O)[C@@H](CC(C)C)NC(=O)[C@H](CCN)NC5=O)[C@@H](C)O)nn4)c(OC)c3)[C@H](O)[C@H](C)O2)Oc2ccc(cc2Cl)[C@H]1O — hemolysis (sheep erythrocytes; 512 µg/mL, 37 °C; baseline: Triton X-100): < 5%
CC[C@H](C)[C@H](NC(=O)[C@H](CO)NC(=O)[C@H](Cc1ccc(O)cc1)NC(=O)[C@H](Cc1ccc(O)cc1)NC(=O)[C@H](CC(N)=O)NC(=O)CNC(=O)[C@H](CO)NC(=O)[C@H](Cc1ccc(O)cc1)NC(=O)[C@H](CO)NC(=O)[C@H](CO)NC(=O)[C@H](CC(N)=O)NC(=O)COCCOCCNC(=O)CN1CCN(CC(=O)O)CCN(CC(=O)O)CCN(CC(=O)O)CC1)C(=O)N[C@@H](CC(C)C)C(N)=O [copper-64 labelled] — maximum metastasis uptake (dynamic PET; tamoxifen-induced PDAC mouse model, metastases; 17.5 min, CLDN4-expressing tumours): 19.3 %IA/cc
CC(C)C[C@@H]1NC(=O)[C@H](CC(=O)O)NC(=O)CNC(=O)[C@H](CCCNC(=N)N)NC(=O)[C@H](Cc2ccccc2)NC(=O)[C@H](CCCCNC(=O)CCc2cn(CCCNC(=O)CN3CCN(CC(=O)O)CCN(CC(=O)O)CCN(CC(=O)O)CC3)nn2)N(C)C(=O)[C@H]2CCCN2C(=O)[C@H](Cc2ccccc2)NC(=O)[C@H](C)NC1=O — tissue-to-tissue ratio (female CB17 SCID mice, tumour and blood; intravenous, dose not given, 90 min, 177Lu-labelled; baseline: tumour over blood): 4.4 ± 2.8
B2 (enzyme Y7F) — Km (N[C@@H](CCCNO)C(=O)O; steady-state kinetics; pH 8, 25 °C, together with: heme): 480 µM

A few entries again:
CC(C)C[C@@H]1NC(=O)[C@H](CC(=O)O)NC(=O)CNC(=O)[C@H](CCCNC(=N)N)NC(=O)[C@H](Cc2ccccc2)NC(=O)[C@H](CCCCNC(=O)CCc2cn(CCCNC(=O)CN3CCN(CC(=O)O)CCN(CC(=O)O)CCN(CC(=O)O)CC3)nn2)N(C)C(=O)[C@H]2CCCN2C(=O)[C@H](Cc2ccccc2)NC(=O)[C@H](C)NC1=O — tissue-to-tissue ratio (female CB17 SCID mice, tumour and blood; intravenous, dose not given, 90 min, 177Lu-labelled; baseline: tumour over blood): 4.4 ± 2.8
B2 (enzyme Y7F) — Km (N[C@@H](CCCNO)C(=O)O; steady-state kinetics; pH 8, 25 °C, together with: heme): 480 µM
